Published values gathered from unrelated publications.
A part holds a random share of what one study measured.

Study 1 — technique: RNA Bind-n-Seq; molecule type: RNA; medium: in vitro; concentration: 365 nM; reference: no-protein control; reading: higher = stronger binding; quantity: RBNS enrichment (R)
Target: RNA binding protein fox-1 homolog 2, RRM domain, GST-SBP tag (RBFOX2, Homo sapiens, UniProt O43251-10, residues 100-194)
Notes: natural RNA segment, single round, ends assumed
Shared flanks, not repeated: GGGAGUUCUACAGUCCGACGAUC … UGGAAUUCUCGGGUGCCAA
Construct (chain): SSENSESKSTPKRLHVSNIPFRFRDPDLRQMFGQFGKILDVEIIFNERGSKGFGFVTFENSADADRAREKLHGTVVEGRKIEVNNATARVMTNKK
UCAGAUUAGUAUUCGGACAUGAAUCCAUUCUAUAAAACACAUCGUGUUCAUGAUAGUGUAUAUUUUACUACUUUUUGAAUGUUAAUUUUAAAAUAGAAGAUGUCCCACUU: 0.343
UGUGGCUUUCUUAAAGCCCUGUUGUAAAAAAUUACUAUGUGGAUGGCAGUCUCUCACAUCACAGAUGUGGAAAGUAUAAUUUUAUAUUUGUAUUUUCAAAUAAAUAAGUU: 0.496
GUUCACUGACUAGGAAAAGCACUACAUUUUAAAUUCAGCAUUAGUGCAUUGGGAAGGAUCUUUACUGCUUUGUGCUUGGCAUGUCAUUAUUUUCCAUUUGACAUUAGGGC: 1.4
CACAGUCUCUCCACCUUUGCUUCUGAAUUCUUGUUUUUGAGCAAUAAACAGAAAAUCGCCACUUGUAUUGGGCCGGUGGAGUGUGGGGAGGUGGUCACCGAGCACUGGAC: 0.69
UCCAUCCAUCCAUCCAUCCAUCCAUCCAUCCAUCCAUCCAUUCGUCAGCCUACAUUCAACAAACGCCUCUUGAAUGUCUAUGAUUCCCCCAGACACAUGCUGACAGACAC: 1.07
GCUGCUUCAGUAAGAAAAUGUAGAAACUGGAAUAUGAGCCCAGUAAGAGUCCCUGAGAGAGCUUCAGCUUAUAACAAGGCUAAUUUUAGGUUGUACGUCAUUCUCGAUGU: 0.587
AAACAAGUAGCAUACAUUUUGUAAUUAACAUUGAUAAACACUGUGAUUUUUUUGGUUAAAACUUUUUCAUUGAUCUGAAUUGCUUAAAUUGCAUAUAUUGUAAAAUAGAG: 0.53
UGAGAUACAUUGUUUUGGAAAUUCAUACAAUUUUCUCAACAUGGUACUCUACUGGCAGGAUGCAGUUUUAAAUUUUAUGCCAUCAGUUAUUUAUUCUUGUUUAUUCAAAU: 0.775
AUUGAUAGCUCUUAAAGGAGUGAAAAUCUAAAAUAGUAAAUUUCAAUGUUAAGUGUCUGCUUUAUGGGCAUAUAUAAAAGUAGACACAUUUCAUUUGUUAAUUUAGUUGU: 0.766
GAGUUUUGGAGGACCCCGGUCCCCACAAUGCCAGGCUGCAGGAUAACUGCCAUCCCCUUCUGUGAGUUAUGUACGGGGACUUAGACUGUCCUGUGCAGAGGUGGAGGGCA: 0.899
AGCUGGCGGGCUGGCCUUCUGGACCCUGGCUUCUCCCCACUGUAACGCCUGUUACACACAAACUGUUGUGGGUUCCUGCCAGGCUUGAAGAAAAUGAUCUGAAUUUUUUC: 0.633
UAAGCAGAUCUCCUCCCCUGGACCAUGCAAGUCCCUCUCCUUGAAAUGACCACUCCGUAAUAGAACAUUUCAUUCCGUCAGCUGGCCCCCACUUCCUUUCACUCACGCAU: 0.567

Study 2 — technique: RNA Bind-n-Seq; molecule type: RNA; medium: in vitro; concentration: 200 nM; notes: whole 134-nt RNA, ends assumed; together with: 150 mM KCl; reference: input library; reading: higher = stronger binding; quantity: log2 enrichment
Target: Ras GTPase-activating protein-binding protein 1, full length (G3BP1, Homo sapiens, UniProt Q13283)
Chain of UniProt Q13283 (whole entry, looked up): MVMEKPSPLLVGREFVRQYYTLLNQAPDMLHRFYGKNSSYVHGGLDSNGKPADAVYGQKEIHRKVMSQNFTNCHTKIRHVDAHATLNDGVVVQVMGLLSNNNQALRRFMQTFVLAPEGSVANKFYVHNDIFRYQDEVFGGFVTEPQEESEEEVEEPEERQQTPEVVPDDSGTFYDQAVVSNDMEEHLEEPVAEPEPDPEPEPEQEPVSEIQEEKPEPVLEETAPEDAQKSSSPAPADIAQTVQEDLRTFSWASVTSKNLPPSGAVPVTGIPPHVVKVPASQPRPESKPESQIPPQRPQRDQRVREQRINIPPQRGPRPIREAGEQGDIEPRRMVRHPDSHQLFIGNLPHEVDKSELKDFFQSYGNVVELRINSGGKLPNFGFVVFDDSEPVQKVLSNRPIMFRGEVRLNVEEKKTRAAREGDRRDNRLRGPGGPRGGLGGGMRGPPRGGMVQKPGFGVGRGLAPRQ
Shared flanks, not repeated: GGGAGUUCUACAGUCCGACGAUC … UGGAAUUCUCGGGUGUCAAGG
CCUGUGCUACACAUCGUAUGUACCGAAUCGGGCCCCCCCGGGCCCCCCCGGGCCCCCCCGGAAAGUAUUAUGUUACGCCGUUCGGAUCUG: -0.369
AGUCCUGUGCUACACAUCGUAUGUACCGAAUCAAACCCCCAAACCCCCAAAUUUAAAAAAGUAUUAUGUUACGCCGUUCGGAUCUGCACU: -0.374
GCAGGAAGUAAAAACAAAUGGAAAUGCUUCGGAUAGUGGCAGGGGUGGGGGUUGCUAAGGAAAGGGUGGGAUGGGAGUGGGUAAGGAGUU: 0.713
AGAGAAUAAGAAUUCAGCUGACAGGAGGCCUCUAUCCUGUCCCUCCACCCCACCCUCCACCUCAAUCCCCUCCCAUCUUCCCCAGACCUA: 0.754
UGGGAGGUGGAAUUUGUUUAUUUUUUUAGCUCAUUUCCAGGGGUGGGAAUUUUUUUUUAAUAUGUGUCAUGAAUAAAGUUGUUUUUGAAA: -0.0823
UGGGAGGUGGAUUUUGUUUAUUUUUUUAGCUCAUUUCCAGGGGUGGGAAUUUUUUGUUAAUAUGUGUCAUGAAUAAAGUUGUUUUUGAAA: 0.225
CAAGUCCUGUGCUACACAUCGUAUGUACCGAAUCGGUGGUUUUUGGUUUUUUUGGAAAGUAUUAUGUUACGCCGUUCGGAUCUGCACUUC: -1.03
UGGGAGGUGGAUUUUUUUUAUUUUUUUAGCUCAUUUCCAGGGGUGGGAAUUUUUUUUUAAUAUGUGUCAUGAAUAAAGUUGUUUUUGAAA: 0.414
UGGCCCUGGUGGCAUGCGGGGAGGAAGAGGUGGCCUCAUGGAUUGUGGUGGUCCCGGUGGAAUGUUCAGAGGUGGCCGUGGUGGAGACAG: 0.96
ACCAUGCAGGUGGGCAUGUUUGGGAAGUGGGGCAAGGGGGGGAUAGGGAGGGGGGUAACACUUUGGGAACAGGUGGUCCCAGGUCGUUUC: 1.05
CACAGACAACACGCACCCACACAGACACAGAGGGAAGGGGUUGGGAUGGGGACAGGGUGCACAGCAUGGCGGGGUAGGACCCCAGCCCCU: 1.77
CUCAAGUCCUGUGCUACACAUCGUAUGUACCGAAUCGGUUUGGAGGUUUUUGGAAAGUAUUAUGUUACGCCGUUCGGAUCUGCACUUCCA: -0.249
UGUGAACUUGUAUGUGAAGAAUCUGGACGACUCCAUUGAUGACGACAAACUGAGGAAAGAGUUCUCUCCCUAUGGAGUAAUUACCAGUGC: 0.385
AUCAUGCAGGUGGGCAUCUUUGGGAAGUGGGGCAAGGGGGGGAUAGGGAGGGGGGUAACACUUUGGGAACAGGUGGUCCCAGGUCGUUUC: 1.18

Study 3 — technique: aptamer microarray, sandwich; molecule type: DNA with 2'F-ANA; medium: in vitro; concentration: 200 nM; together with: Cy3 exosite-II aptamer, 400 nM; reading: higher = stronger binding; quantity: mean fluorescence intensity; sequence: GGTTGGTGTGGTTGG
Target: Prothrombin, mature alpha-thrombin (F2, Homo sapiens, UniProt P00734)
Notes: whole 15-mer aptamer, many near background
2'F-ANA at 1 4 9 11 12 13: 138 a.u.
2'F-ANA at 1 4 6 7 8 12 13: 211 a.u.
2'F-ANA at 4 6 7 8 9 11 13 15: 179 a.u.
2'F-ANA at 1 2 3 5 6 8 10 11 15: 60.9 a.u.
2'F-ANA at 1 5 6 7 8 9 10 14 15: 58.3 a.u.
2'F-ANA at 3 5 6 7 8 10 12 15: 63.1 a.u.
2'F-ANA at 2 4 5 6 9 11 13 14: 46 a.u.
2'F-ANA at 4 5 7: 86.8 a.u.
2'F-ANA at 3 4 6 8 10 13 14: 160 a.u.
2'F-ANA at 2 3 7 8 9 10 11 15: 348 a.u.
2'F-ANA at 2 4 11 13 15: 286 a.u.
2'F-ANA at 1 2 3 4 9 12 14: 78.9 a.u.
2'F-ANA at 2 3 6 7 12 14 15: 473 a.u.
2'F-ANA at 4 6 7 8 12 13 15: 393 a.u.
2'F-ANA at 1 2 4 5 6 7 8 11 13: 54.9 a.u.
2'F-ANA at 1 2 3 6 7 9 13: 119 a.u.
2'F-ANA at 1 3 5 6 10 13 14 15: 49.1 a.u.
2'F-ANA at 2 6 7 8 9 11 12 13: 581 a.u.
2'F-ANA at 1 2 3 5 11 12 13: 77.1 a.u.
2'F-ANA at 1 3 4 8 10 12 13 14: 53.5 a.u.
2'F-ANA at 2 3 4 6 7 10 11 12 13 14: 153 a.u.
2'F-ANA at 1 2 6 7 9 15: 140 a.u.

Study 4 — technique: universal PBM; molecule type: double-stranded DNA, one strand shown; medium: in vitro; concentration: 600 nM; reading: higher = stronger binding; quantity: E-score
Target: Sal-like protein 4, full length isoform A (SALL4, Homo sapiens, UniProt Q9UJQ4, residues 1-1053)
Chain of UniProt Q9UJQ4 (whole entry, looked up): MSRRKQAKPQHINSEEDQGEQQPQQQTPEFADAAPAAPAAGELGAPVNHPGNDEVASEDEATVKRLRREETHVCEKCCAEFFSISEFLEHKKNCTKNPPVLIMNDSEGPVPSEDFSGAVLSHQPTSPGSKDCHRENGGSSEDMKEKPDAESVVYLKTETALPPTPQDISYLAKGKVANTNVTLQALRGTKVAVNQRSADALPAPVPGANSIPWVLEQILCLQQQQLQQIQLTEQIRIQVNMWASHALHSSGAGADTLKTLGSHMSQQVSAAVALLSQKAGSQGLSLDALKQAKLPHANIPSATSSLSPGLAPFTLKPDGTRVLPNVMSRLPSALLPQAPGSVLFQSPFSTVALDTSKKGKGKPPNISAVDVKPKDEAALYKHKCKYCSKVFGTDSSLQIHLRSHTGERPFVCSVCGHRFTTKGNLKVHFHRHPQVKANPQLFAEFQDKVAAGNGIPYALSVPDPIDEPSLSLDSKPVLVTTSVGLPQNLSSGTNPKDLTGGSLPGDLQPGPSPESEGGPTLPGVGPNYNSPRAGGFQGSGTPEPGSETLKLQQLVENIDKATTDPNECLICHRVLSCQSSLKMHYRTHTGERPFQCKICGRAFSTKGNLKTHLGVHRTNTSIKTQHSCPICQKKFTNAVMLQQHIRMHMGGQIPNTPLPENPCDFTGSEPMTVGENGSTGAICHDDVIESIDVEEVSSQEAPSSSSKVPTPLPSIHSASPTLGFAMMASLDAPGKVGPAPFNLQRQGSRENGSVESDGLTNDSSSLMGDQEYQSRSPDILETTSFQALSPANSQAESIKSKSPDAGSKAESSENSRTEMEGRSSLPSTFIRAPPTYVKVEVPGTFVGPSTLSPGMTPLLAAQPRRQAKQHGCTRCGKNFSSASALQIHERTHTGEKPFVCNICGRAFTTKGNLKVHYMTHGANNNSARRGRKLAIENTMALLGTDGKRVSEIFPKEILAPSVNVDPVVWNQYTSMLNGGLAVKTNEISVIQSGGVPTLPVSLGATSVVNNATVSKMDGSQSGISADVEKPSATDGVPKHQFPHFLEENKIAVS
Notes: 8-mer, flanks averaged, mean of replicates
CACGAGTA: 0.0939
ACGATTCG: -0.109
CCTCGTTC: -0.198
ACTCCTAA: -0.00126
ATACGAAT: 0.281
ATCACCGC: -0.0716
AGTCGCCC: -0.24
ACCGTCGA: -0.168
CGACAACC: -0.222
ATATGCGA: 0.238
AACGGATG: -0.093
TACTCCCA: 0.0826
TACGGCAA: 0.0237
CCCTCAGA: -0.186
ATCTTACC: 0.191
ACTTGAAA: 0.117
CAAGGTCG: -0.133
AGGACACG: -0.245

For quick reference, copied from above (study 4):
ACCGTCGA: -0.168
TACGGCAA: 0.0237
CCCTCAGA: -0.186
CACGAGTA: 0.0939
